Values quoted from earlier work, collected from citations in different studies.
Each line is one published result; not all experiments were run side by side. Several values in a cell are separate wells, animals, samples, runs or records. ± marks the error that the study gave. No end group written: not given here.
ACE: Angiotensin-converting enzyme (ACE, Homo sapiens, UniProt P12821)
Sequence of UniProt P12821 (whole entry, looked up): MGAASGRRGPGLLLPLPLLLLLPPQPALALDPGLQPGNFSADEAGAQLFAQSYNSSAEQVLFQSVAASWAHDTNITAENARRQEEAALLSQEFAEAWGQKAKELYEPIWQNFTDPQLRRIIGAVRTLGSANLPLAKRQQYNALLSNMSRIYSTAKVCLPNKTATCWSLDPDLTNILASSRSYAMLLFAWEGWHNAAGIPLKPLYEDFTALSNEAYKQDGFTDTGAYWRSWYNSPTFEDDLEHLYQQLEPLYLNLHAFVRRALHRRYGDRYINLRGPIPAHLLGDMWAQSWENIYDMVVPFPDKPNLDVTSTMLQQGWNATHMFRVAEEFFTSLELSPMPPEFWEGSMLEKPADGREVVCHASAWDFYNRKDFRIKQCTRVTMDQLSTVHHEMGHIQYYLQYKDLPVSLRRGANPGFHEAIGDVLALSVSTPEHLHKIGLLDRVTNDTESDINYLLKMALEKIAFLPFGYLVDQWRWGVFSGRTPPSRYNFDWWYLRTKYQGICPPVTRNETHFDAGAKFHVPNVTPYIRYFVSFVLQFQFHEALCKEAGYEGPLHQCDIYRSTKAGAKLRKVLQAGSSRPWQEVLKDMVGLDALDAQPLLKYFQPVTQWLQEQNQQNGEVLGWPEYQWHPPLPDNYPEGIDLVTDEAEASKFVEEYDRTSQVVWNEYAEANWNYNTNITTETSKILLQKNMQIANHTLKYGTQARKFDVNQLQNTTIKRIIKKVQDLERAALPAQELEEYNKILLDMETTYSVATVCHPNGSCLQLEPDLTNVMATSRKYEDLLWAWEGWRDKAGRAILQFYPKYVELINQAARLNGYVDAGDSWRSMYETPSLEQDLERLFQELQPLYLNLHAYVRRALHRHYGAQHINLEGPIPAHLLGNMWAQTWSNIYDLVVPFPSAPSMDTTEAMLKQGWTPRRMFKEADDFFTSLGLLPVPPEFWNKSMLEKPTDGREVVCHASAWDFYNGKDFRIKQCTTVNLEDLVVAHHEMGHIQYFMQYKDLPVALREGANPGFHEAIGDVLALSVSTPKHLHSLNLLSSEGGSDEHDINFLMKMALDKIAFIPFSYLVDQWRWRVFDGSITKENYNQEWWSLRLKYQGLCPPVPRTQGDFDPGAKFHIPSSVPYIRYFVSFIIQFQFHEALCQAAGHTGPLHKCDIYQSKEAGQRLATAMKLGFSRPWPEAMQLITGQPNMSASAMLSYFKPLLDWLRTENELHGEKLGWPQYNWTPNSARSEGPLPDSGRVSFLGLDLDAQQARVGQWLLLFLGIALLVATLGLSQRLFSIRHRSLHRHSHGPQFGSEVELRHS
PTGS2: Prostaglandin G/H synthase 2 (PTGS2, Homo sapiens, UniProt P35354)
Sequence of UniProt P35354 (whole entry, looked up): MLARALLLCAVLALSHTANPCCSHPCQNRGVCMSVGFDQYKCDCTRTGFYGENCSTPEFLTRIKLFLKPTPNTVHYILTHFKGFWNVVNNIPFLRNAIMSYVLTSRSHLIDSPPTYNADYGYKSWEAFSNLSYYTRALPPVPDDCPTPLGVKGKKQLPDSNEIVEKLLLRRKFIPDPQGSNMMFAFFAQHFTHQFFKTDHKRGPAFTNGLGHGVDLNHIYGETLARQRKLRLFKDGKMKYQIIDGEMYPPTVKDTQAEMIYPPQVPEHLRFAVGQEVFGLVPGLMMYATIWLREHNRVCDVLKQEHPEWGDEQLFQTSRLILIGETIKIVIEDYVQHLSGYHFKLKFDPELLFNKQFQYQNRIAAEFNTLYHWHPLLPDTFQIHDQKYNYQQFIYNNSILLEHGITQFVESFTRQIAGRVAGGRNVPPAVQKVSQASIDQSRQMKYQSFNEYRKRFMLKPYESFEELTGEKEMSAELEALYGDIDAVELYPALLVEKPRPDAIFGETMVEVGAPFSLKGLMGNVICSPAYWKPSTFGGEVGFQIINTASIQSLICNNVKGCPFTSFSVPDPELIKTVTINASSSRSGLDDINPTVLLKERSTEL
B1: CCL1; sequence looked up; chain KSMQVPFSRCCFSFAEQEIPLRAILCYRNTSSICSNEGLIFKLKRGKEACALDTVGWVQRHRKMLRHCPSKRK
Sequence of UniProt Q9ZMY2 (whole entry, looked up): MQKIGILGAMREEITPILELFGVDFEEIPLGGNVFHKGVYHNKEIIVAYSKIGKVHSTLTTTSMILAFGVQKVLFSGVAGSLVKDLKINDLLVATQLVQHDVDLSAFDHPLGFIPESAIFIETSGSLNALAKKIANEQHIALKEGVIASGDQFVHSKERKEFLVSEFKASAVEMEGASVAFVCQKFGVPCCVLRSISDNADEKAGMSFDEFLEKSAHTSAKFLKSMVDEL

Molecule | target or system | assay | system | conditions | measurement | value
CCFSWRCRC (disulfide (positions not given here)) (disulfide) | bovine alpha-chymotrypsin | inhibitor |  | together with: Suc-Ala-Ala-Pro-Phe-pNA | Ki | 0.9 µM
FDGPY | ACE | inhibitor | peptide |  | IC50 | 1570 µM
DTKNYKQTSV | CHAPSYN-110 PDZ domains 2/3 | binding, fluorescence polarization | peptide |  | Kd | 17.4 µM
SEGPK | ACE | inhibitor | peptide |  | IC50 | 1220 µM
EKLSSIESDV | CHAPSYN-110 PDZ domains 2/3 | binding, fluorescence polarization | peptide |  | Kd | 4.72 µM
AMTLRKRKFAWYVLSSSLKWLIKKAKKIGVQVCGFE | Pseudomonas aeruginosa |  | peptide, ATCC 15692 |  | MIC | 4 µM
oxaprozin potassium | PTGS2 | inhibitor |  |  | IC50 | 36 µM
pegcetacoplan |  |  | healthy human volunteers, serum | subcutaneous, daily for 28 days | time to steady state | ≤ 22 days
tolmetin sodium | PTGS2 | inhibitor |  |  | IC50 | 0.82 µM
AHFSSLESEV | CHAPSYN-110 PDZ domain 3 | binding, fluorescence polarization | peptide |  | Kd | 14.3 µM
B1 (CCL1) | CCR8 W251Q mutant | IP accumulation, agonist |  |  | EC50 | 0.0066 µM and 0.0034 µM
Et-DADMe-ImmA | Aminodeoxyfutalosine nucleosidase (Helicobacter pylori, UniProt Q9ZMY2) | enzyme activity, inhibitor |  | initial weaker complex | Ki | 0.00017 ± 6e-05 µM
IFFRRNKKMAVKVAINGFGRIGRLAFRQMFGRYIAKINPDNKKFKTMPSG | Staphylococcus aureus |  | peptide, ATCC 6538 |  | MIC | 9 µM
bromfenac sodium | PTGS2 | inhibitor |  |  | IC50 | 0.00745 µM
FVHPILQSAV | CHAPSYN-110 PDZ domain 3 | binding, fluorescence polarization | peptide |  | Kd | 12.2 µM
SLPNPHPSPR | ACE |  | peptide |  | IC50 | 146 µM
CHRSYYCWNLNT | Programmed cell death 1 ligand 1 (CD274, Homo sapiens, UniProt Q9NZQ7) | binding | peptide |  | IC50 | 0.44 µM
PQVSTPTL | ACE |  | peptide |  | IC50 | 86 ± 8 µM
lithium acetylsalicylate | PTGS2 | inhibitor |  |  | IC50 | 1130 µM
